Measurements of several laboratories.
Each line is one published result; not all experiments were run side by side. ± gives the spread as reported.
AKR1C3: Aldo-keto reductase family 1 member C3 (AKR1C3, Homo sapiens, UniProt P42330)
NR1H4: Bile acid receptor (NR1H4, Homo sapiens, UniProt Q96RI1)
CDK2 with cyclin A2: Cyclin-dependent kinase 2, with cyclin A2 (CDK2, Homo sapiens, UniProt P24941)
Genome polyprotein NS2B-NS3 protease: Genome polyprotein, NS2B-NS3 protease (Dengue virus type 2, UniProt P14340)
Sialyltransferase ST3Gal-I: Sialyltransferase ST3Gal-I (Rattus norvegicus, UniProt Q6H8N0)
Ectonucleoside triphosphate diphosphohydrolase 2: Ectonucleoside triphosphate diphosphohydrolase 2 (Homo sapiens, UniProt Q9Y5L3)
DNMT3A catalytic domain: DNA (cytosine-5)-methyltransferase 3A, catalytic domain (DNMT3A, Homo sapiens, UniProt Q9Y6K1)
ST6GAL1: Beta-galactoside alpha-2,6-sialyltransferase 1 (ST6GAL1, Homo sapiens, UniProt P15907)

| SMILES | target | test | system | conditions | how to read | inhibition |
| --- | --- | --- | --- | --- | --- | --- |
| NCCC(=O)N[C@@H](Cc1c[nH]c2ccccc12)C(=O)N[C@@H](Cc1ccc(Cl)cc1)C(=O)N[C@@H](Cc1ccccc1)C(N)=O | EphA2 | ephrin-A5 binding, ELISA |  | 500 µM |  | < 15% |
| C[C@@]12CC[C@@H]3c4cc(I)c(O)c(I)c4CC[C@H]3[C@@H]1CCC2=O | AKR1C3 | enzyme activity, inhibitor, absorbance |  | 100 µM, pH 9 |  | 50% |
| CC(C)CCC[C@@H](C)[C@H]1CCC([C@@H]2CC[C@H]3C[C@H](O)CC[C@]3(C)[C@H]2O)[C@]1(C)CC(=O)O (stereo partly shown) | NR1H4 | reporter gene, antagonist, luciferase | HEK-293T | 10 µM |  | 90.1% |
| CCOc1c(C(C)(C)O)sc2cnc(Nc3ccc(N4CCC(N5CC6(COC6)C5)CC4)cc3OC)nc12 | CAMK1D (Homo sapiens, UniProt Q8IU85) | enzyme activity, inhibitor |  | 0.1 µM |  | 61% |
| Cc1ccc(C(C)C)cc1.Oc1ccccc1C=NNC1=Nc2ccccc2-c2[nH]c3ccc(Br)cc3c2C1.[Cl-].[Cl][Ru+] | Cyclin-dependent kinase 2, with cyclin E (CDK2, Homo sapiens, UniProt P24941) | inhibitor, radiometric kinase |  | 10 µM, with: cyclin E, histone H1 substrate | baseline: flavopiridol | ~50% |
| C[C@@]12CC[C@@H]3c4cc(Br)c(O)cc4CC[C@H]3[C@@H]1CCC2=O | AKR1C3 | enzyme activity, inhibitor, absorbance |  | 100 µM, pH 9 |  | 23.8% |
| CN(C)c1ccc(NC(=S)N(C)c2ccccc2)cc1 | Microtubule-associated protein tau, 0N3R isoform (MAPT, Homo sapiens, UniProt P10636) | fibril formation, ThT fluorescence |  | 100 µM, 18 h, with: tau 10 µM |  | 7% |
| O=C(CCCCCCN1CCN(c2ccc(Nc3ncc(F)c(-c4cn(C5CCCC5)nn4)n3)cc2)CC1)NO | CDK2 with cyclin A2 | enzyme activity, inhibitor, TR-FRET |  | 50 nM |  | -7.98% |
| COc1ccc2c(c1Cl)CC[C@@H]1[C@@H]2CC[C@@]2(C)C(=O)CC[C@@H]12 | AKR1C3 | enzyme activity, inhibitor, absorbance |  | 10 µM, pH 9 |  | 50% |
| Nc1ccccc1NC(=O)c1ccc(Nc2nccc(-c3cn(C4CCCC4)nn3)n2)cc1 | CDK2 with cyclin A2 | enzyme activity, inhibitor, TR-FRET |  | 50 nM |  | 1.75% |
| Oc1c(C(Nc2nccs2)c2ccccc2OCc2ccccc2)ccc2cccnc12 (stereo not shown) | Genome polyprotein NS2B-NS3 protease | enzyme activity, inhibitor, fluorogenic |  | 10 µM, 0.1% CHAPS, with: Bz-Nle-Lys-Arg-Arg-AMC substrate |  | 76.9 ± 1.52% |
| C[C@H](CCC(=O)N[C@H](CC(c1c[nH]c2ccc(N=[N+]=[N-])cc12)c1c[nH]c2ccc(N=[N+]=[N-])cc12)C(=O)O)[C@H]1CC[C@H]2[C@@H]3CC[C@@H]4C[C@H](O)CC[C@]4(C)[C@H]3CC[C@]12C (stereo partly shown) | Sialyltransferase ST3Gal-I | enzyme activity, inhibitor, UPLC |  | 500 µM |  | 5% |
| NC(=O)c1cn(CC(=O)NC[C@H](NC(=O)CCc2nc(-c3cccnc3)no2)c2ccccc2)c(=O)[nH]c1=O | SIRT6 (Homo sapiens, UniProt Q8N6T7) | demyristoylation |  | 10 µM |  | 3% |
| O=C(Nc1ccc(Cl)cc1)c1cccc(S(=O)(=O)NC2CC2)c1 | Ectonucleoside triphosphate diphosphohydrolase 2 | enzyme activity, inhibitor, absorbance |  | 100 µM |  | 36% |
| O=[N+]([O-])c1cccc(S(=O)(=O)NC[C@@H](O)[C@@H]2CCc3cc(F)ccc3O2)c1 | PTGS2 (Ovis aries, UniProt P79208) | enzyme activity, inhibitor, absorbance |  | 200 µM |  | 67.6% |
| CCn1nc(Cl)c2c1-c1cnc(N)c(c1)O[C@H](C)c1cc(F)ccc1-c1nn(C)cc1C2 | NTRK2 (Homo sapiens, UniProt Q16620) |  | Ba/F3 | 0.1 µM |  | 2% |
| O=C(N1CCCC1)n1cc(-c2ccc(-c3ccccc3)cc2)nn1 | Platelet-activating factor acetylhydrolase 2, cytoplasmic (Mus musculus, UniProt Q8VDG7) | probe labelling, inhibitor, gel-based competitive ABPP | mouse T-cell proteome | 10 nM, 30 min |  | inhibited |
| Cc1cc(Nc2ccc(NC(=O)c3ccc(NC(=O)c4ccncc4)cc3)cc2)nc(N)n1 | DNMT3A catalytic domain | enzyme activity, inhibitor, restriction-based fluorescence |  | 20 µM |  | 0% |
| C[C@]12CC[C@@H]3c4ccc(O)c(Br)c4CC[C@H]3[C@@H]1CCC2=O | AKR1C3 | enzyme activity, inhibitor, absorbance |  | 10 µM, pH 9 |  | 25% |
| N[C@H]1CCCc2c1[nH]c1ccc(Cl)cc21 | HTR2A (Homo sapiens, UniProt P28223) | radioligand binding, antagonist radioligand displacement |  | 10 µM |  | 38.1 ± 5.4% |
| COc1cc2c(cc1Cl)[C@H]1CC[C@@]3(C)C(=O)CC[C@H]3[C@@H]1CC2 | AKR1C3 | enzyme activity, inhibitor, absorbance |  | 100 µM, pH 9 |  | ≥ 80% |
| O=C(CCCCCCOc1ccc(Nc2ncc(F)c(-c3cn(C4CCCCC4)nn3)n2)cc1)NO | CDK2 with cyclin A2 | enzyme activity, inhibitor, TR-FRET |  | 5 µM |  | -5.87% |

| SMILES | target | test | system | conditions | how to read | inhibition |
| --- | --- | --- | --- | --- | --- | --- |
| CC(C)CCC[C@@H](C)[C@H]1CC[C@@H]([C@@H]2CC[C@H]3C[C@H](O)CC[C@]3(C)C2=O)[C@]1(C)CC(=O)NCC(=O)O | NR1H4 | reporter gene, antagonist, luciferase | HEK-293T | 10 µM |  | 46.9% |
| Cc1cc(Nc2ccc(NC(=O)c3ccc(NC(=O)c4ccnc5ccccc45)cc3)cc2)nc(N)n1 | DNMT3A catalytic domain | enzyme activity, inhibitor |  | 10 µM |  | 29% |
| Oc1c(C(Nc2nc3ccccc3s2)c2ccccc2OCc2ccccc2)ccc2cccnc12 (stereo not shown) | Genome polyprotein, protease (Dengue virus type 2, UniProt P14340) | enzyme activity, inhibitor, fluorescence |  | 10 µM |  | 72.6% |
| COc1c(-c2cccc(O)c2)oc2c(OC)c(O)cc(O)c2c1=O | MAL12 (Saccharomyces cerevisiae S288c, UniProt P53341) | enzyme activity, p-nitrophenyl glucoside substrate |  | 10 µM, series down to 1 µM |  | 74.9 ± 1.5% |
| C[C@@]12CC[C@@H]3c4cc(Br)c(O)c(Br)c4CC[C@H]3[C@@H]1CCC2=O | AKR1C3 | enzyme activity, inhibitor, absorbance |  | 100 µM, pH 9 |  | 50.8% |
| NOCC(=O)O | CBS (Homo sapiens, UniProt P35520) | enzyme activity, inhibitor |  | 30 µM |  | 67% |
| COc1ccc2[nH]cc(C(C[C@@H](NC(=O)CC[C@@H](C)[C@H]3CC[C@H]4[C@@H]5CC[C@@H]6C[C@H](O)CC[C@]6(C)[C@H]5CC[C@]34C)C(=O)O)c3c[nH]c4ccc(OC)cc34)c2c1 | Sialyltransferase ST3Gal-I | enzyme activity, inhibitor, UPLC |  | 500 µM |  | 7% |
| N#Cc1cnc2sc(C(=O)O)cc2c1N1CCc2[nH]nc(C(=O)N[C@@H](CC(=O)NCCOCCN3CCOCC3)c3cccc(Br)c3)c2C1 | Interleukin-1 receptor-like 2 (IL1RL2, Homo sapiens, UniProt Q9HB29) | reporter gene | HEK-Blue IL-36R | up to 100 µM, with: IL-36β |  | no inhibition |
| Oc1c(C(Nc2nccs2)c2cccc(OCc3ccccc3)c2)ccc2cccnc12 (stereo not shown) | Genome polyprotein NS2B-NS3 protease | enzyme activity, inhibitor, fluorogenic |  | 10 µM, 0.1% CHAPS, with: Bz-Nle-Lys-Arg-Arg-AMC substrate |  | 83.6 ± 1.21% |
| COc1cc(C(=O)NC2CCC(N3CCN(CC4CCC5(CCCC5)C4)CC3)CC2)c(F)cc1Nc1ncc2c(n1)N(C1CCCC1(F)F)CC(F)(F)C(=O)N2C (stereo not shown) | BMX (Homo sapiens, UniProt P51813) | cell-free assay, TR-FRET |  | 10 µM |  | 2.03% |
| O=C(O)c1cccc(S(=O)(=O)N2CCOCC2)c1 | Ectonucleoside triphosphate diphosphohydrolase 2 | enzyme activity, inhibitor, absorbance |  | 100 µM |  | 8% |
| COc1ccc2c(c1)CC[C@@H]1[C@@H]2CC[C@]2(C)C(=O)CC[C@@H]12 | AKR1C3 | enzyme activity, inhibitor, absorbance |  | 10 µM, pH 9 |  | 16.7% |
| COc1ccc([C@@]23Oc4cc(OC)cc(OC)c4[C@]2(O)[C@@H]2OC(=O)[C@@H]2C3c2ccccc2)cc1 (mixture of isomers) | Retinoid-inducible serine carboxypeptidase (SCPEP1, Homo sapiens, UniProt Q9HB40) | inhibitor, competitive ABPP-SILAC | PC-3 cell lysate | 1.0 µM |  | > 75% |
| Cc1ccc(C(=O)Nc2ccc(CN)cc2)c(O)c1 | Procathepsin L (CTSL, Homo sapiens, UniProt P07711) | enzyme activity, inhibitor |  | 10 µM |  | < 20% |
| C[C@]12CCC[C@H]1[C@@H]1CCc3c(cc(I)c(O)c3I)[C@H]1CC2 | AKR1C3 | enzyme activity, inhibitor, absorbance |  | 100 µM, pH 9 |  | 27.3% |
| C[C@H](CCC(=O)N[C@H](CC(c1c[nH]c2ccc([N+](=O)[O-])cc12)c1c[nH]c2ccc([N+](=O)[O-])cc12)C(=O)O)[C@H]1CC[C@H]2[C@@H]3CC[C@@H]4C[C@H](O)CC[C@]4(C)[C@H]3CC[C@]12C | ST6GAL1 | enzyme activity, inhibitor, UPLC |  | 25 µM |  | 100% |
| CN(Cc1ccccc1)C(=O)c1cccc(S(=O)(=O)N2CCOCC2)c1 | Ectonucleoside triphosphate diphosphohydrolase 2 | enzyme activity, inhibitor, absorbance |  | 100 µM |  | 32% |
| C[C@H](CCC(=O)N[C@H](CC(c1c[nH]c2ccc(F)cc12)c1c[nH]c2ccc(F)cc12)C(=O)O)[C@H]1CC[C@H]2[C@@H]3CC[C@@H]4C[C@H](O)CC[C@]4(C)[C@H]3CC[C@]12C | ST6GAL1 | enzyme activity, inhibitor, UPLC |  | 25 µM |  | 86% |
| CC[C@H](C)[C@H](NC(=O)[C@@H](N)Cc1c[nH]cn1)C(=O)N[C@@H](CCCCN)C(=O)N[C@@H](CCC(N)=O)C(=O)N[C@@H](CC(=O)O)C(=O)N[C@@H](CCC(=O)O)C(=O)N[C@@H](CCCNC(=N)N)C(=O)N[C@H](C(=O)N[C@H](C(=O)N[C@@H](CCSC)C(=O)NCC(=O)N[C@@H](CCC(N)=O)C(=O)N[C@@H](CC(N)=O)C(=O)NCC(=O)O)[C@@H](C)O)C(C)C | Neural cell adhesion molecule L1, extracellular domain (Homo sapiens, UniProt P32004) | L1CAM homophilic binding, surface plasmon resonance |  | 1 to 100 µM, 25 °C, with: soluble L1CAM ectodomain 50 nM |  | ≤ 40% |
| CC(=O)c1cnc(N)nc1N1CC[C@H]1c1nn2ccc(Cl)c2c(=O)n1-c1ccccc1 | KCNA5 (Homo sapiens, UniProt P22460) | ion current, inhibitor |  | 3 µM |  | < 10% |
| CC1C(=O)N(S(C)(=O)=O)C1c1ccccc1 (stereo not shown) | Rhomboid protease AarA (Providencia stuartii, UniProt P46116) | enzyme activity, inhibitor, fluorogenic peptide |  | concentration not given |  | inactive |

Excerpt of the above:
| SMILES | target | test | system | conditions | how to read | inhibition |
| --- | --- | --- | --- | --- | --- | --- |
| CCn1nc(Cl)c2c1-c1cnc(N)c(c1)O[C@H](C)c1cc(F)ccc1-c1nn(C)cc1C2 | NTRK2 (Homo sapiens, UniProt Q16620) |  | Ba/F3 | 0.1 µM |  | 2% |
| O=C(N1CCCC1)n1cc(-c2ccc(-c3ccccc3)cc2)nn1 | Platelet-activating factor acetylhydrolase 2, cytoplasmic (Mus musculus, UniProt Q8VDG7) | probe labelling, inhibitor, gel-based competitive ABPP | mouse T-cell proteome | 10 nM, 30 min |  | inhibited |
| Cc1cc(Nc2ccc(NC(=O)c3ccc(NC(=O)c4ccncc4)cc3)cc2)nc(N)n1 | DNMT3A catalytic domain | enzyme activity, inhibitor, restriction-based fluorescence |  | 20 µM |  | 0% |
| C[C@]12CC[C@@H]3c4ccc(O)c(Br)c4CC[C@H]3[C@@H]1CCC2=O | AKR1C3 | enzyme activity, inhibitor, absorbance |  | 10 µM, pH 9 |  | 25% |
| N[C@H]1CCCc2c1[nH]c1ccc(Cl)cc21 | HTR2A (Homo sapiens, UniProt P28223) | radioligand binding, antagonist radioligand displacement |  | 10 µM |  | 38.1 ± 5.4% |
